Measured values gathered from unrelated publications.
Lines come from different studies, so protocols differ. “And” joins repeats or separate records; there may be more than shown. Numbers after ± are the reported error.
Kir3.1/Kir3.4: Kir3.1/Kir3.4 (Homo sapiens, UniProt P48544+P48549)
pyrD: Dihydroorotate dehydrogenase (quinone) (pyrD, Acinetobacter baumannii, UniProt B7GZW7)
GUK1: GUK1 (Homo sapiens, UniProt Q16774)

COc1cc(F)ccc1-c1ncnc(Nc2cccc(C[S@](C)(=N)=O)c2)n1  remaining activity (Ephrin type-B receptor 4 (EPHB4, Homo sapiens, UniProt P54760); kinase activity; 10 µM, added: 10 µM ATP): 54%
Cc1n[nH]c2ccc(-c3cc(OC[C@@H](N)Cc4ccccc4)cnc3-c3ccoc3)cc12  log2 fold change (Cyclin-dependent kinase 1 (CDC28, Candida albicans, UniProt P43063); kinase binding, competitor, MIB/MS competition, refers to: CDC28; Candida albicans cell lysate; 10 µM; reference: DMSO): -0.931
O=C(c1ccc(C(=O)N2CCC(N3CCCC3)CC2)c(Nc2ccccc2)c1)N1CCC(N2CCCC2)CC1  diffusion coefficient (Lethal(3)malignant brain tumor-like protein 3, MBT domains (Homo sapiens, UniProt Q96JM7); FRAP; human cells; 0.05 µM): 0.156 µm2/s
CC1=NN(c2cc(Cl)ccc2Cl)C(=O)C1=NNc1ccc(S(N)(=O)=O)cc1  inhibition (bovine α-glucosidase; enzyme activity, inhibitor, glucose oxidase; 10 µg/mL, added: maltose): 28.941 ± 0.0011%
CC1(C)CC2(C)OC(=O)NC2(C)c2ccccc21 (stereo not shown)  fold enrichment (Protein transport protein Sec31A (SEC31A, Homo sapiens, UniProt O94979); binding, affinity selection mass spectrometry; reference: other proteins in batch): 0.895
NCCS(=O)(=O)O  normalised MST signal (Sodium- and chloride-dependent taurine transporter (SLC6A6, Homo sapiens, UniProt P31641, Y138A); binding, microscale thermophoresis; 1.95 µM, room temperature, added: 50 nM labelled protein; higher = more binding): -0.0477
CC(C)C[C@H](N)C(=O)O  binding stoichiometry (snf (Aquifex aeolicus, UniProt O67854, L400A); scintillation proximity; concentration not given, 400 nM protein): 0.81 ± 0.05 mol/mol LeuT
C=CC(=O)N1CCC(COCC(=O)N2CCN(c3nc(-c4cnc(N)nc4C(F)F)nc(N4CCOC[C@@H]4C)n3)CC2)CC1  remaining binding (Peripheral plasma membrane protein CASK (CASK, Homo sapiens, UniProt O14936); KINOMEscan; 1 µM): 93%
CCC1(O)CCCN(C(=O)c2ccc(-c3ccc(F)c(NC(=O)CCl)c3)cc2)C1 (stereo not shown)  protein adduct (DNA dC->dU-editing enzyme APOBEC-3A (Homo sapiens, UniProt P31941); covalent modifier, intact protein mass spectrometry, refers to: adduct +26309 Da; 25 µM, 3 h, 1-fold molar excess): 66.5%
CC[C@H](C)[C@H](NC(=O)[C@H](CCC(=O)O)NC(=O)[C@H](C)NC(=O)[C@@H](NC(=O)[C@H](Cc1c[nH]cn1)NC(=O)[C@H]1CCC[C@@H]1NC(=O)[C@H](CCC(=O)O)NC(=O)[C@H](C)NC(=O)[C@H]1CCC[C@@H]1NC(=O)[C@H](CC(C)C)NC(=O)[C@H](Cc1c[nH]cn1)NC(=O)[C@H](Cc1c[nH]cn1)NC(=O)[C@H]1CCC[C@@H]1NC(=O)[C@H](Cc1ccccc1)NC(=O)[C@H](Cc1ccccc1)NC(=O)[C@H](CCCNC(=N)N)NC(=O)[C@H](CCCNC(=N)N)NC(=O)[C@H](CCCNC(=N)N)NC(=O)[C@H]1CCC[C@@H]1NC(=O)[C@H](CC(=O)O)NC(=O)[C@H](CCC(N)=O)NC(=O)[C@@H](NC(=O)C[C@H](Cc1c[nH]c2ccccc12)NC(=O)[C@H](CCCCN)NC(=O)[C@@H](Cc1c[nH]c2ccccc12)NC(=O)[C@H](CC(C)C)NC(=O)[C@H](CC(=O)O)NC(=O)[C@H](Cc1c[nH]cn1)NC(=O)[C@H](CC(C)C)NC(=O)C[C@@H](N)CC(C)C)[C@@H](C)CC)[C@@H](C)O)C(N)=O  basal cAMP formation (Parathyroid hormone/parathyroid hormone-related peptide receptor (PTH1R, Homo sapiens, UniProt Q03431); inverse agonist, GloSensor cAMP; HEK293 expressing PTH1R): decreased
CCCC[C@H](NC(=O)[C@H](C)c1c(C)[nH]c2ccc(O)cc12)c1ncc(-c2cc3ccccc3nc2OC)[nH]1  Hill coefficient (Melanin-concentrating hormone receptor 1 (MCHR1, Homo sapiens, UniProt Q99705)): 1.1
Nc1ncnc2c1ncn2[C@@H]1O[C@H](COP(=O)(O)CP(=O)(O)OP(=O)(O)O)[C@@H](O)[C@H]1O  specific binding (P2X purinoceptor 1 (P2RX1, Homo sapiens, UniProt P51575); saturation binding; HEK293; 25 nM): 2070 CCPM and 5180 CCPM and 5010 CCPM and 4820 CCPM and 3210 CCPM
O=C(COc1ccc(Cl)cc1Cl)Nc1cc(C2CCC2)nn1C1CCOCC1  Emax (Kir3.1/Kir3.4; thallium flux, activator; HEK293; reference: standard compound): < 10%
OC[C@H]1OC(O)[C@H](O)[C@@H](O)[C@@H]1O (stereo partly shown)  kcat (Hexokinase-3 (HK3, Homo sapiens, UniProt P52790, R807A); substrate inhibition; mutant R807A, partial substrate inhibition model, added: ATP 20 mM): 69 ± 11 s⁻¹
Nc1nc(=O)n([C@H]2C[C@H](O)[C@@H](CO)O2)cc1CNCC[C@H](N)C(=O)O  inhibition type (DNA (cytosine-5)-methyltransferase 1 (DNMT1, Homo sapiens, UniProt P26358); radiometric [3H]-SAM; concentration not given, added: SAM, poly(dI-dC)): inhibited
Cc1cc(Nc2ccc(S(F)(F)(F)(F)F)cc2)n2ccnc2n1  robust Z-score (pyrD; enzyme activity, inhibitor, colorimetric HTS, refers to: DCIP reduction; 3 µM; direction not given): 25.1
CCc1cc(NC(=O)COc2cccc(Cl)c2Cl)n(C2CCOCC2)n1  Emax (Kir3.1/Kir3.4; thallium flux, activator; HEK293; reference: standard compound): 61%
C=CC(=O)N1CCC(C(=O)NCC(=O)N2CCN(c3nc(-c4cnc(N)nc4C(F)F)nc(N4CCOCC4)n3)CC2)CC1  remaining binding (Calcium/calmodulin-dependent protein kinase type 1B (PNCK, Homo sapiens, UniProt Q6P2M8); KINOMEscan; 1 µM): 100%
CCCCC[C@H](O)/C=C/[C@H]1[C@H](O)CC(=O)[C@@H]1C/C=C\CCCC(=O)O  Emax (Prostaglandin E2 receptor EP1 subtype (PTGER1, Homo sapiens, UniProt P34995, F334L/G92S); IP1 accumulation, agonist; AD293; 1 h; reference: wild type receptor): 98 ± 3.5%
NC/C(=C\F)COc1cccc(Cn2c(=S)[nH]c(=O)c3[nH]cnc32)c1  inhibition (Voltage-dependent L-type calcium channel subunit alpha-1C (CACNA1C, Homo sapiens, UniProt Q13936); peak ion current, inhibitor, automated patch clamp; 10 µM, pulse 1): 0.5%
CC[C@H](C)[C@@H]1NC(=O)[C@H](C)NC(=O)[C@H]([C@@H](C)CC)NC(=O)[C@H](CCC(N)=O)NC(=O)[C@H](C)NC(=O)[C@H](CCCNC(=N)N)NC(=O)[C@H](C(C)C)NC(=O)[C@H](CC(C)C)NC(=O)[C@H](CCC(=O)O)NC(=O)[C@H](CCCNC(=N)N)NC(=O)CNC(=O)[C@@H](NC(=O)[C@H](CC(C)C)NC(=O)[C@H](CCCCN)NC(=O)[C@@H](NC(=O)[C@@H](NC(=O)[C@H](CCC(=O)O)NC(=O)[C@H](CCC(=O)O)NC(=O)[C@H](CCSC)NC(=O)[C@H](Cc2c[nH]c3ccccc23)NC(=O)[C@H](CO)NC(=O)[C@@H](N)CC(=O)O)C(C)C)[C@@H](C)CC)CSSC[C@@H]2NC(=O)[C@@H](NC(=O)[C@H](CCCCN)NC(=O)[C@H](CC(N)=O)NC(=O)[C@H](C)NC(=O)[C@H](CC(C)C)NC(=O)[C@H](C)NC(=O)[C@H](CO)NC(=O)[C@H](Cc3ccc(O)cc3)NC(=O)[C@H](CC(C)C)NC(=O)[C@H](CCC(N)=O)NC(=O)c3ccc(-c4c5ccc(=[N+](C)C)cc-5oc5cc(N(C)C)ccc45)c(C(=O)[O-])c3)CSSC[C@H](NC(=O)CNC(=O)[C@H](C(C)C)NC(=O)[C@H](Cc3c[nH]cn3)NC2=O)C(=O)N[C@@H]([C@@H](C)O)C(=O)N[C@@H](CCCCN)C(=O)N[C@@H](CCCNC(=N)N)C(=O)N[C@@H](CO)C(=O)N[C@@H](CC(C)C)C(=O)N[C@@H](C)C(=O)N[C@@H](CCCNC(=N)N)C(=O)N[C@@H](Cc2ccccc2)C(=O)N[C@H](C(=O)O)CSSC[C@@H](C(=O)NCC(=O)N[C@@H](CCSC)C(=O)N[C@@H](CO)C(=O)N[C@H](C(=O)N[C@@H](Cc2c[nH]c3ccccc23)C(=O)N[C@@H](CO)C(=O)O)[C@@H](C)O)NC1=O  fast dissociation fraction (Relaxin receptor 1 (RXFP1, Homo sapiens, UniProt Q9HBX9, F76A/Y80A); NanoBRET; concentration not given, infinite dilution): 63.1%
C=C1CN(S(=O)(=O)c2ccc(C)cc2)CCCN(Cc2ccccc2)CCCN(S(=O)(=O)c2ccc(C)cc2)C1  FLuc/RLuc ratio (Protein transport protein Sec61 subunit alpha isoform 1 (Homo sapiens, UniProt P61619); Sec61-dependent translocation, inhibitor, refers to: CD4 signal peptide-FLuc reporter; HEK293; 0.37 mM, 6 h): 1.39
O=c1nc(SCc2ccc(C(F)(F)F)cc2)nc(SCc2csc3ccc(Cl)cc23)[nH]1  mean decatenated DNA (DNA topoisomerase 2-alpha (TOP2A, Homo sapiens, UniProt P11388); decatenation; 0.49 µM): 0%
Cc1ccc(/C=C2\SC(=O)N(CC(=O)c3ccc([N+](=O)[O-])cc3)C2=O)cc1  Hill slope (Aldo-keto reductase family 1 member B1 (AKR1B1, Homo sapiens, UniProt P15121); enzyme activity, inhibitor): -0.694
CC(=C/C(=O)O)/C=C/C=C(\C)C1C=C2C(C)(C)CCCC2(C)O1 (stereo not shown)  plasma membrane localization (Rhodopsin (RHO, Homo sapiens, UniProt P08100, E181K); immunostaining, refers to: opsin; COS-7 transfected; 0.10 µM, unit not given; reference: surface over total stained cells): 0
COc1cc(-c2cc(C(C)=O)n3ccccc23)cc(OC)c1Cn1ccnc1  ΔTm (CREB-binding protein (CREBBP, Homo sapiens, UniProt Q92793)): 2.5 °C
CCOc1nc2nc(C)cc(Nc3ccc(C(F)(F)F)c(F)c3)n2n1  robust Z-score (pyrD; enzyme activity, inhibitor, colorimetric HTS, refers to: DCIP reduction; 3 µM; direction not given): 21.4
Nc1ncnc2c1ncn2[C@@H]1O[C@H](COP(=O)(O)OP(=O)(O)O)[C@@H](O)[C@H]1O  ΔH (GUK1; ITC; molar ratio 2.17): -0.354 kcal/mol
CCCCCCCC/C=C\CCCCCCCC(=O)NCCc1ccc(O)c(O)c1  Hill coefficient (Transient receptor potential cation channel subfamily V member 1 (Trpv1, Mus musculus, UniProt Q704Y3, S511A); ion current, agonist, whole-cell patch clamp; S511A): 3.47 ± 0.32
Nc1nc2c(ncn2[C@@H]2O[C@H](COP(=O)(O)O)[C@@H](O)[C@H]2O)c(=O)[nH]1  reaction velocity (GUK1; enzyme activity, NADH-coupled; 7.812 µM, added: KCl 150 mM): -0.0166 µM/s and 0.00485 µM/s and -0.000526 µM/s
O=C(COP(=O)(O)O)[C@@H](O)[C@H](O)[C@H](O)COP(=O)(O)O  thermal stability ratio (DnaJ homolog subfamily A member 1 (DNAJA1, Homo sapiens, UniProt P31689); thermal proteome profiling; HepG2 cell lysate; concentration not given, 57 over 37 °C; reference: compound over control): 0.833 and 0.682 and 0.472

A few entries again:
Cc1n[nH]c2ccc(-c3cc(OC[C@@H](N)Cc4ccccc4)cnc3-c3ccoc3)cc12  log2 fold change (Cyclin-dependent kinase 1 (CDC28, Candida albicans, UniProt P43063); kinase binding, competitor, MIB/MS competition, refers to: CDC28; Candida albicans cell lysate; 10 µM; reference: DMSO): -0.931
O=C(c1ccc(C(=O)N2CCC(N3CCCC3)CC2)c(Nc2ccccc2)c1)N1CCC(N2CCCC2)CC1  diffusion coefficient (Lethal(3)malignant brain tumor-like protein 3, MBT domains (Homo sapiens, UniProt Q96JM7); FRAP; human cells; 0.05 µM): 0.156 µm2/s
CC1=NN(c2cc(Cl)ccc2Cl)C(=O)C1=NNc1ccc(S(N)(=O)=O)cc1  inhibition (bovine α-glucosidase; enzyme activity, inhibitor, glucose oxidase; 10 µg/mL, added: maltose): 28.941 ± 0.0011%
